Published values pooled from the literature.
A part holds a random share of what one study measured. “And” joins repeats or separate records; there may be more than shown.
UniProt O75676, sequence (whole entry, looked up): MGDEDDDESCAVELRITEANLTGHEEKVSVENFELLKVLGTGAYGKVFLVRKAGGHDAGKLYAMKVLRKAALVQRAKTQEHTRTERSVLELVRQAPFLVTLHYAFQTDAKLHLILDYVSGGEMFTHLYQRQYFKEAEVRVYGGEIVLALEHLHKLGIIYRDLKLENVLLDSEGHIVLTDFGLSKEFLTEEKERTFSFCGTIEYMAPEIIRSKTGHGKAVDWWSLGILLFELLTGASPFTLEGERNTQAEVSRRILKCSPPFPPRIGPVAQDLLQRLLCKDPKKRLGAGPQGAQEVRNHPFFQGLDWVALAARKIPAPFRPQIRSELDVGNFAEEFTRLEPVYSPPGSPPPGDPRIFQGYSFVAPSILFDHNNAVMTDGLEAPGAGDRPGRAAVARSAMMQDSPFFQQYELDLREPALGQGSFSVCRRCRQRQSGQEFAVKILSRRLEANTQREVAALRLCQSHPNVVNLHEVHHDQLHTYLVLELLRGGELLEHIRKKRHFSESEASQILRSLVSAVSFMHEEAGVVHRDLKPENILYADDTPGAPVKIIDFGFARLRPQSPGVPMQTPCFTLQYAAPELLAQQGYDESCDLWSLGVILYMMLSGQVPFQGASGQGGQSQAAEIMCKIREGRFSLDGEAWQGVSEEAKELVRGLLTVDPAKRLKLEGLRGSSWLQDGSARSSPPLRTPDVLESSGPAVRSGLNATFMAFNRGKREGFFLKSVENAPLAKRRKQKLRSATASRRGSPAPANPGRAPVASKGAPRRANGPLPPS

Study 1
Cell line: Huh-7
Concentration: 10 µM
Time: 24 h
`NNC(=O)c1ccncc1` has a viability of 103%.
`C=CCc1ccc(O)c(OC)c1` gave a viability of 87.7%.
For `Cc1cc(C)cc(OCC2CNC(=O)O2)c1` (centres unmarked), the viability was 101%.
For `C[C@H]1C[C@@H]2[C@H]([C@@H](O)C[C@@]3(C)[C@H]2CC[C@]3(O)C(=O)COC(=O)CCC(=O)O)[C@@]2(C)C=CC(=O)C=C12`, the viability was 80.6%.
`O=[N+]([O-])OCC(CO[N+](=O)[O-])O[N+](=O)[O-]` gave a viability of 95.6%.

Study 2
Target: DNA polymerase theta, ATPase domain (POLQ, Homo sapiens, UniProt O75417)
UniProt O75417, sequence (whole entry, unmodified, looked up): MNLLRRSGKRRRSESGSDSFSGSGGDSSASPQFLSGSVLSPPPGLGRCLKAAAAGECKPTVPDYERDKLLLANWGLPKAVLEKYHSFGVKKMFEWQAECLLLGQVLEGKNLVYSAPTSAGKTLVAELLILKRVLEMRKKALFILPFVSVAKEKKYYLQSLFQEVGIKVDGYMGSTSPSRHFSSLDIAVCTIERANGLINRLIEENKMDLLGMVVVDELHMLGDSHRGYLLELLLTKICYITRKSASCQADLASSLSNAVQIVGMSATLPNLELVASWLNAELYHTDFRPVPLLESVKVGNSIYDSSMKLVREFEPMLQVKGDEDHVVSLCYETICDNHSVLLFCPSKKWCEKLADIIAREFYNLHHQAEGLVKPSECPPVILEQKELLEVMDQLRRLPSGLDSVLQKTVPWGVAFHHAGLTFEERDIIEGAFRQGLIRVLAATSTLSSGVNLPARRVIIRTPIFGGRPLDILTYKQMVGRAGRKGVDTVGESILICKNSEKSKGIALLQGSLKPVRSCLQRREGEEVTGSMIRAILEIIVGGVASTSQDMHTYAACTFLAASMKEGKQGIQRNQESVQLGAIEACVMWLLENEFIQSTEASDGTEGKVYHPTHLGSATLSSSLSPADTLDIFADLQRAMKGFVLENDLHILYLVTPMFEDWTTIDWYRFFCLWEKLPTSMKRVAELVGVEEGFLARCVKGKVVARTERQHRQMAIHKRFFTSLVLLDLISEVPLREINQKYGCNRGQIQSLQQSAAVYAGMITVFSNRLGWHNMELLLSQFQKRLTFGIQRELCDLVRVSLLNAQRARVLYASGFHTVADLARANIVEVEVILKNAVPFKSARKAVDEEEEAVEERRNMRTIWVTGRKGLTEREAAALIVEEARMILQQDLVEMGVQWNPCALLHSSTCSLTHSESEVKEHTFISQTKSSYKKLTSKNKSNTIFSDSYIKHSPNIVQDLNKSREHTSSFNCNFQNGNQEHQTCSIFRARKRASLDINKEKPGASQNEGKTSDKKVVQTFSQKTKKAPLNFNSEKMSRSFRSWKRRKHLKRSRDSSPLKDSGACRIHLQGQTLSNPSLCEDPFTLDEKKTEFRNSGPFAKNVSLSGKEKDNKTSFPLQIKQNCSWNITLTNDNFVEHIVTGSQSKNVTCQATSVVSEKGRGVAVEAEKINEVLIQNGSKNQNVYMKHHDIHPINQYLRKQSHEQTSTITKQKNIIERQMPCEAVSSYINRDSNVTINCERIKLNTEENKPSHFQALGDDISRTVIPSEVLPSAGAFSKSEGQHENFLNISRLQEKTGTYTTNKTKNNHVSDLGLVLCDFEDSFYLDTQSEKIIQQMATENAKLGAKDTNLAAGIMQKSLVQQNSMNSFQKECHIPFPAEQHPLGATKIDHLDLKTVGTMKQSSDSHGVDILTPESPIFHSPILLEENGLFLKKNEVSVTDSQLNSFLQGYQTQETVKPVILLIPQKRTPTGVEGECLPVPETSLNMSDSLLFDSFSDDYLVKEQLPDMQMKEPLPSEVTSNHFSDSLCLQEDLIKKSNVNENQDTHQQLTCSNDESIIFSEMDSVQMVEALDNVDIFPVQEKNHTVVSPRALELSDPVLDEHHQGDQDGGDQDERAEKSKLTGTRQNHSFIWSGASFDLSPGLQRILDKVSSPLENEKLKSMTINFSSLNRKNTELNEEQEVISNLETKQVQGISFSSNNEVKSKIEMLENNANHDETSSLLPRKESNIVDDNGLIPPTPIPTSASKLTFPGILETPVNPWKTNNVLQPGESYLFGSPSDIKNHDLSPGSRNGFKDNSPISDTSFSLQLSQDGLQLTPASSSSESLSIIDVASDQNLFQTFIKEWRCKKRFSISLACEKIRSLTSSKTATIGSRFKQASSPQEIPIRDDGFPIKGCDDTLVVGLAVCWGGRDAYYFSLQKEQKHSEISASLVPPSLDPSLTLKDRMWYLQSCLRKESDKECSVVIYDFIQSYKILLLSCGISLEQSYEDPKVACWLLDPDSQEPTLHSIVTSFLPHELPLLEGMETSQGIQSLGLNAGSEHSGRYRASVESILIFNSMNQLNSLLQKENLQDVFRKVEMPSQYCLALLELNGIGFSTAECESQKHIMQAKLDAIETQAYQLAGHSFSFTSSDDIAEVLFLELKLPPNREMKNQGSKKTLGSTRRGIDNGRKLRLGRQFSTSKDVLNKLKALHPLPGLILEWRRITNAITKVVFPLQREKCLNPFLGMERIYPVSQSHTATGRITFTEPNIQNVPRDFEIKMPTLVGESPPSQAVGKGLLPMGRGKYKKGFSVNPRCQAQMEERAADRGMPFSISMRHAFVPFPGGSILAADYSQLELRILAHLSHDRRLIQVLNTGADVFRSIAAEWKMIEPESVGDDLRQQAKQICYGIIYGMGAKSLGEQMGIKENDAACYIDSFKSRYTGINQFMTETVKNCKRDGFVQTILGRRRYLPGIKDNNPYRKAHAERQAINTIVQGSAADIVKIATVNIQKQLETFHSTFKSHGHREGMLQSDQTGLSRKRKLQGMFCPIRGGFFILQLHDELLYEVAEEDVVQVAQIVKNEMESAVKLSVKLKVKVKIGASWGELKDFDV
Observed: enzyme activity
Action: inhibitor
Concentration: 77 µM
Relative to: untreated
For `OCCn1cc(-c2cnc3nnn(Cc4ccc5ncccc5c4)c3n2)cn1`, the remaining activity was 110% and 105% and 118% and 116%.
With `CN[C@@H]1[C@@H](O[C@H]2O[C@H](CO)[C@@H](N)[C@H](O)[C@H]2O)O[C@H]2C[C@@H](N)[C@@H](O[C@H]3[C@H](O)[C@@H](O)[C@H](N)C[C@@H]3N)O[C@@H]2[C@@H]1O` the remaining activity was 102%.
`COC(=O)/C=C/C(=O)OC` gave a remaining activity of 102%.
`Brc1c(Br)c(Br)c2n[nH]nc2c1Br` gave a remaining activity of 116%.
`CCn1c(-c2nonc2N)nc2c(C#CC(C)(C)O)ncc(OC[C@H]3CCCNC3)c21` gave a remaining activity of 95.2% and 93.7% and 85.7% and 83.5%.
The remaining activity of `CN(Cc1cnc2nc(N)nc(N)c2n1)c1ccc(C(=O)N[C@@H](CCC(=O)O)C(=O)O)cc1` (racemic) is reported as 101%.

Study 3
Structure (SMILES): O=C(O)[C@@H]1[C@@H](Cn2nnc3ccccc3c2=O)CC[C@H]1C(=O)c1ccc(OCCC2CCOCC2)cc1
Method: competition with immobilised ligand
Concentration: 1 µM
Leukocyte tyrosine kinase receptor (LTK, Homo sapiens, UniProt P29376); cell-free assay — remaining binding: 100%.
It gave 86% for remaining binding (Receptor-type tyrosine-protein kinase FLT3, autoinhibited (FLT3, Homo sapiens, UniProt P36888); cell-free assay).
Mitogen-activated protein kinase kinase kinase 14 (MAP3K14, Homo sapiens, UniProt Q99558); cell-free assay — remaining binding: 100%.
The remaining binding was 100% (Serine/threonine-protein kinase ULK1 (ULK1, Homo sapiens, UniProt O75385); cell-free assay).
Non-receptor tyrosine-protein kinase TNK1 (TNK1, Homo sapiens, UniProt Q13470); cell-free assay — remaining binding: 100%.
The remaining binding was 100% (Receptor-type tyrosine-protein kinase FLT3 (FLT3, Homo sapiens, UniProt P36888, F691L/ITD); cell-free assay).
The remaining binding was 74% (Tyrosine-protein kinase JAK2, JH1 (JAK2, Homo sapiens, UniProt O60674); cell-free assay).
Citron Rho-interacting kinase (CIT, Homo sapiens, UniProt O14578); cell-free assay — remaining binding: 92%.
Cyclin-dependent kinase 9 (CDK9, Homo sapiens, UniProt P50750); cell-free assay — remaining binding: 100%.
For Ribosomal protein S6 kinase alpha-4, N-terminal kinase domain (RPS6KA4, Homo sapiens, UniProt O75676); cell-free assay: remaining binding read 100%.
For Mitogen-activated protein kinase kinase kinase kinase 4 (MAP4K4, Homo sapiens, UniProt O95819); cell-free assay: remaining binding read 93%.
It gave 91% for remaining binding (Cyclin-G-associated kinase (GAK, Homo sapiens, UniProt O14976); cell-free assay).
Serine/threonine-protein kinase DCLK1 (DCLK1, Homo sapiens, UniProt O15075); cell-free assay — remaining binding: 100%.
It gave 91% for remaining binding (Cyclin-dependent kinase 11A (CDK11A, Homo sapiens, UniProt Q9UQ88); binding).
The remaining binding was 100% (Epithelial discoidin domain-containing receptor 1 (DDR1, Homo sapiens, UniProt Q08345); cell-free assay).
For Serine/threonine-protein kinase TNNI3K (TNNI3K, Homo sapiens, UniProt Q59H18); cell-free assay: remaining binding read 94%.
The remaining binding was 100% (Serine/threonine-protein kinase Nek7 (NEK7, Homo sapiens, UniProt Q8TDX7); cell-free assay).

Study 4
Target: Calcium/calmodulin-dependent protein kinase type II subunit alpha (CAMK2A, Homo sapiens, UniProt Q9UQM7)
UniProt Q9UQM7, sequence (whole entry, looked up): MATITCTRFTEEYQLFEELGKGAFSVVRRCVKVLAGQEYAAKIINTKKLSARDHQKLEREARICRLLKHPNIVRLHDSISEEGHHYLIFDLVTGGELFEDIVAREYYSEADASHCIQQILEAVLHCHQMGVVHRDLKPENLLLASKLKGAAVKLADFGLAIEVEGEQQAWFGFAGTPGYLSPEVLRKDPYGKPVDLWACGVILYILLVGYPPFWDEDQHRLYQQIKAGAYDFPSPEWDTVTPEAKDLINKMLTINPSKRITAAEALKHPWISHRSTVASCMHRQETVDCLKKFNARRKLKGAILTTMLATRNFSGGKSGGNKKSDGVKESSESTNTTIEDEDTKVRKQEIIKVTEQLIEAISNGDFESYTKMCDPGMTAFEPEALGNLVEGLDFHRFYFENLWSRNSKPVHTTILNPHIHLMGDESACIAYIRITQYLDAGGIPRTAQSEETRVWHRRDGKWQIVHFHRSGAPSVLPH
Observed: enzyme activity
Action: inhibitor
Concentration: 10 µM
With `CC(C[N+](C)(C)C)OC(N)=O` (centres unmarked) the inhibition was -5%.
`C=C/C(C)=C/C=C/C(C)=C/C=C1/C(C)=CCCC1(C)C` has an inhibition of 2%.
With `O=C[C@H](O)[C@@H](O)[C@H](O[C@H]1O[C@H](CO)[C@@H](O[C@H]2O[C@H](CO)[C@@H](O)[C@H](O)[C@H]2O)[C@H](O)[C@H]1O)[C@H](O)CO` the inhibition was 5%.
`NC(=O)c1ccc[n+]([C@@H]2O[C@H](COP(=O)([O-])O)[C@@H](O)[C@H]2O)c1` has an inhibition of 18%.
The inhibition of `COc1cc(OC)c2c(=O)cc(-c3ccc(O)c(O)c3)oc2c1` is reported as -39%.
For `O=C(OCC1=C[C@@H](O)[C@@H]2C=CO[C@@H](O[C@@H]3O[C@H](CO)[C@@H](O)[C@H](O)[C@H]3O)[C@H]12)c1ccc(O)cc1`, the inhibition was 11%.
With `CO[C@@H]1[C@H](O)[C@@H](CO)O[C@H]1n1cnc2c(N)ncnc21` the inhibition was 2%.
